Measurements pooled from the literature.
Lines come from different studies, so protocols differ. Numbers after ± are the reported error.

CC(C)C[C@H](NC(=O)[C@@H]1CCCN1C(=O)[C@H](CCCCN)NC(=O)[C@@H](N)CO)C(=O)N1CCC[C@H]1C(=O)N[C@@H](CCC(=O)O)C(=O)N[C@H](C(=O)N[C@H](C(=O)N[C@@H](CC(=O)O)C(=O)N[C@@H](CCC(=O)O)C(=O)N[C@@H](Cc1ccc(O)cc1)C(=O)N[C@@H](Cc1cn(CCOCCOCCOCCNC(=O)CCc2ccc(O)c(CN(CCN(CC(=O)O)Cc3cc(CCC(=O)NCCCC[C@H](NC(=O)N[C@@H](CCC(=O)O)C(=O)O)C(=O)O)ccc3O)CC(=O)O)c2)nn1)C(=O)O)[C@@H](C)O)C(C)C [gallium-68 labelled]
standardized uptake value (NMRI nu/nu mice, LNCaP tumour, brain; 10 MBq, high molar activity): 0.01 g/g

N=C(N)NCCC[C@@H]1NC(=O)[C@H](CCCCNC(=O)CCOCCOCCOCCOCCNC(=O)CN2CCN(CC(=O)O)CCN(CC(=O)O)CCN(CC(=O)O)CC2)NC(=O)[C@@H](Cc2ccccc2)NC(=O)[C@H](CC(=O)O)NC(=O)CNC1=O [indium-111 labelled]
tissue uptake (female athymic nude mice, blood; intravenous, 3 µCi, 0.5 h, U-87 MG glioma xenograft): 7.39 ± 0.78 %ID/g

CSCC[C@H](NC(=O)[C@H](CC(C)C)NC(=O)[C@H](Cc1c[nH]cn1)NC(=O)CNC(=O)[C@@H](NC(=O)[C@H](C)NC(=O)[C@H](Cc1c[nH]c2ccccc12)NC(=O)[C@H](CCC(N)=O)NC(=O)CCCCCNC(=O)CNC(=O)CNC(=O)CNC(=O)CSC(C)=O)C(C)C)C(N)=O [technetium-99m labelled]
tissue uptake (healthy Swiss mouse, large intestine, contents removed; intravenous, 18.5 MBq, 240 min): 19.4 ± 0.9 %ID/g

CC(C)C[C@H](NC(=O)[C@H](C)N)C(=O)N[C@@H](CC(C)C)C(=O)N[C@@H](C)C(=O)N[C@@H](CC(N)=O)C(=O)N[C@@H](Cc1c[nH]cn1)C(=O)N[C@@H](CCC(=O)O)C(=O)N[C@@H](CCC(=O)O)C(=O)N[C@@H](CC(C)C)C(=O)N[C@@H](Cc1ccccc1)C(=O)N[C@@H](CCC(N)=O)C(=O)N[C@H](C(=O)NCC(=O)NCC(=O)NCC(=O)N[C@@H](CO)C(=O)N[C@@H](CSC1CC(=O)N(CCNC(=O)CCCCCN2C(=CC=C3CCCC(C=CC4=[N+](CCCCS(=O)(=O)[O-])c5ccc(S(=O)(=O)O)cc5C4(C)C)=C3Oc3ccc(S(=O)(=O)O)cc3)C(C)(C)c3cc(S(=O)(=O)O)ccc32)C1=O)C(=O)O)[C@@H](C)O (some centres unmarked)
half-life (RP-HPLC; mouse serum; 15 µM, 37 °C): 3.5 h

N=C(N)NCCC[C@@H]1NC(=O)[C@H](CCCCNC(=O)CNC(=O)CNC(=O)CNC(=O)CC[C@H](NC(=O)CNC(=O)CNC(=O)CNC(=O)c2ccc(NN=Cc3ccccc3S(=O)(=O)O)nc2)C(=O)NCC(=O)NCC(=O)NCC(=O)NCCCC[C@@H]2NC(=O)[C@@H](Cc3ccccc3)NC(=O)[C@H](CC(=O)O)NC(=O)CNC(=O)[C@H](CCCNC(=N)N)NC2=O)NC(=O)[C@@H](Cc2ccccc2)NC(=O)[C@H](CC(=O)O)NC(=O)CNC1=O [technetium-99m labelled]
log P (shake-flask; n-octanol/phosphate buffer; pH 7.4): -4.44 ± 0.05

N=C(N)NCCC[C@@H]1NC(=O)[C@H](CCCCNC(=O)CC[C@H](NC(=O)CCOCCOCCOCCOCCNC(=O)CC[C@H](NC(=O)CN2CCN(CC(=O)O)CCN(CC(=O)O)CCN(CC(=O)O)CC2)C(=O)NCCOCCOCCOCCOCCC(=O)N[C@@H](CCC(=O)NCCCC[C@@H]2NC(=O)[C@@H](Cc3ccccc3)NC(=O)[C@H](CC(=O)O)NC(=O)CNC(=O)[C@H](CCCNC(=N)N)NC2=O)C(=O)NCCCC[C@@H]2NC(=O)[C@@H](Cc3ccccc3)NC(=O)[C@H](CC(=O)O)NC(=O)CNC(=O)[C@H](CCCNC(=N)N)NC2=O)C(=O)NCCCC[C@@H]2NC(=O)[C@@H](Cc3ccccc3)NC(=O)[C@H](CC(=O)O)NC(=O)CNC(=O)[C@H](CCCNC(=N)N)NC2=O)NC(=O)[C@@H](Cc2ccccc2)NC(=O)[C@H](CC(=O)O)NC(=O)CNC1=O [indium-111 labelled]
tumour to tissue ratio (athymic nude mice, female, U-87 MG glioma xenograft, tumour and muscle; intravenous, 0.5 h; baseline: tumour over muscle): 13.9 ± 6.43

CCCC[C@H](NC(=O)CCCCCCCNC(=O)c1ccc(NN)nc1)C(=O)N[C@H]1CC(=O)NCCCC[C@@H](C(N)=O)NC(=O)[C@H](Cc2c[nH]c3ccccc23)NC(=O)[C@H](CCCNC(=N)N)NC(=O)[C@@H](Cc2ccccc2)NC(=O)[C@H](Cc2c[nH]cn2)NC1=O [technetium-99m labelled]
uptake (C57 mouse, B16/F1 melanoma, bone; intravenous, 24 h): 0.12 ± 0.07 %ID/g

N=C(N)NCCC[C@@H]1NC(=O)[C@H](CCCCNC(=O)CC[C@H](NC(=O)CCOCCOCCOCCOCCNC(=O)CN2CCN(CC(=O)O)CCN(CC(=O)O)CCN(CC(=O)O)CC2)C(=O)NCCCC[C@@H]2NC(=O)[C@@H](Cc3ccccc3)NC(=O)[C@H](CC(=O)O)NC(=O)CNC(=O)[C@H](CCCNC(=N)N)NC2=O)NC(=O)[C@@H](Cc2ccccc2)NC(=O)[C@H](CC(=O)O)NC(=O)CNC1=O [indium-111 labelled]
tumour to tissue ratio (athymic nude mice, female, U-87 MG glioma xenograft, tumour and blood; intravenous, 24 h; baseline: tumour over blood): 41.3 ± 8.03

N=C(N)NCCC[C@H](NC(=O)[C@H](CCCCN)NC(=O)[C@H](CCC(N)=O)NC(=O)CCOCCOCCOCCNC(=O)CN1CCN(CC(=O)O)CCN(CC(=O)O)CCN(CC(=O)O)CC1)C(=O)N[C@@H](CCCCN)C(=O)N[C@@H](CCCNC(=N)N)C(=O)N[C@@H](CCCCN)C(=O)N[C@@H](CCCCN)C(=O)N[C@@H](CO)C(=O)N[C@@H](CCCNC(=N)N)C(=O)N[C@@H](Cc1ccc(O)cc1)C(=O)N[C@@H](CCCCN)C(=O)N[C@@H](CO)C(=O)O [copper-64 labelled]
time to peak muscle radioactivity (PET; mice, B16-F10 melanoma; intravenous, dose not given): ≤ 5 min

CC(C)C[C@@H]1NC(=O)[C@H](C(C)C)NC(=O)[C@H](CO)NC(=O)CNC(=O)CNC(=O)[C@H](CCCNC(=N)N)NC(=O)[C@@H]2CCCN2C(=O)[C@@H](NC(=O)CC[C@H](NC(=O)c2ccc(N(C)Cc3cnc4nc(N)nc(N)c4n3)cc2)C(=O)O)C(C)(C)SSC[C@@H](C(=O)O)NC(=O)CNC(=O)[C@H]([C@@H](C)O)NC(=O)[C@H](C(C)C)NC1=O
half-life (acetate buffer; 100 µM, pH 4.0, 70 °C): 217 h

N=C(N)NCCC[C@@H]1NC(=O)[C@H](CCCCNC(=O)CCOCCOCCOCCOCCNC(=O)CC[C@H](NC(=O)CCOCCOCCOCCOCCNC(=O)CC[C@H](NC(=O)CN2CCN(CC(=O)O)CCN(CC(=O)O)CCN(CC(=O)O)CC2)C(=O)NCCOCCOCCOCCOCCC(=O)N[C@@H](CCC(=O)NCCOCCOCCOCCOCCC(=O)NCCCC[C@@H]2NC(=O)[C@@H](Cc3ccccc3)NC(=O)[C@H](CC(=O)O)NC(=O)CNC(=O)[C@H](CCCNC(=N)N)NC2=O)C(=O)NCCOCCOCCOCCOCCC(=O)NCCCC[C@@H]2NC(=O)[C@@H](Cc3ccccc3)NC(=O)[C@H](CC(=O)O)NC(=O)CNC(=O)[C@H](CCCNC(=N)N)NC2=O)C(=O)NCCOCCOCCOCCOCCC(=O)NCCCC[C@@H]2NC(=O)[C@@H](Cc3ccccc3)NC(=O)[C@H](CC(=O)O)NC(=O)CNC(=O)[C@H](CCCNC(=N)N)NC2=O)NC(=O)[C@@H](Cc2ccccc2)NC(=O)[C@H](CC(=O)O)NC(=O)CNC1=O [indium-111 labelled]
tissue uptake (athymic nude mice U-87 MG xenograft, U-87 MG tumour; intravenous, 1 h, with: RGD2 about 14 mg/kg co-injected): 0.7 %ID/g

C[C@@H](O)[C@H](NC(=O)[C@@H]1CSSC[C@H](NC(=O)[C@@H](Cc2ccccc2)NC(=O)CN2CCCN3CCN(CCCN(CP(=O)(O)O)CC3)CC2)C(=O)N[C@@H](Cc2ccc(O)cc2)C(=O)N[C@H](Cc2c[nH]c3ccccc23)C(=O)N[C@@H](CCCCN)C(=O)N[C@@H]([C@@H](C)O)C(=O)N1)C(=O)O [copper-64 labelled]
tumour-to-tissue ratio (Lewis rat, male, tumour-bearing; 24 h; baseline: tumour over muscle): 112 ± 10

Cc1ncsc1-c1ccc(CNC(=O)[C@@H]2C[C@@H](OC(=O)OCCSSCCn3cc(CCCC(=O)N[C@@H](Cc4ccc(O)cc4)C(=O)N[C@@H](CCCNC(=N)N)C(=O)N[C@@H](CCCNC(=N)N)C(=O)N[C@@H](CCCNC(=N)N)C(=O)N[C@@H](CCCNC(=N)N)C(=O)N[C@@H](CCCNC(=N)N)C(=O)N[C@@H](CCCNC(=N)N)C(=O)N[C@@H](CCCNC(=N)N)C(=O)N[C@@H](CCCNC(=N)N)C(=O)N[C@@H](CCCNC(=N)N)C(N)=O)nn3)CN2C(=O)[C@@H](NC(=O)COCCOCCOCCNC(=O)C[C@@H]2N=C(c3ccc(Cl)cc3)c3c(sc(C)c3C)-n3c(C)nnc32)C(C)(C)C)cc1
remaining intact compound (UHPLC; PBS; 100 nM, 1 h, 37 °C, with: 5 mM glutathione; baseline: total peak area): 0%

CCCC[C@H](NC(=O)CNC(=O)CNC(=O)c1ccc(NN)nc1)C(=O)N[C@H]1CC(=O)NCCCC[C@@H](C(N)=O)NC(=O)[C@H](Cc2c[nH]c3ccccc23)NC(=O)[C@H](CCCNC(=N)N)NC(=O)[C@@H](Cc2ccccc2)NC(=O)[C@H](Cc2c[nH]cn2)NC1=O [technetium-99m labelled]
tissue uptake ratio (C57 mouse, B16/F1 melanoma-bearing; intravenous, 2 h; baseline: tumour over liver): 27.2

A few entries again:
CC(C)C[C@H](NC(=O)[C@H](C)N)C(=O)N[C@@H](CC(C)C)C(=O)N[C@@H](C)C(=O)N[C@@H](CC(N)=O)C(=O)N[C@@H](Cc1c[nH]cn1)C(=O)N[C@@H](CCC(=O)O)C(=O)N[C@@H](CCC(=O)O)C(=O)N[C@@H](CC(C)C)C(=O)N[C@@H](Cc1ccccc1)C(=O)N[C@@H](CCC(N)=O)C(=O)N[C@H](C(=O)NCC(=O)NCC(=O)NCC(=O)N[C@@H](CO)C(=O)N[C@@H](CSC1CC(=O)N(CCNC(=O)CCCCCN2C(=CC=C3CCCC(C=CC4=[N+](CCCCS(=O)(=O)[O-])c5ccc(S(=O)(=O)O)cc5C4(C)C)=C3Oc3ccc(S(=O)(=O)O)cc3)C(C)(C)c3cc(S(=O)(=O)O)ccc32)C1=O)C(=O)O)[C@@H](C)O (some centres unmarked)
half-life (RP-HPLC; mouse serum; 15 µM, 37 °C): 3.5 h
